Measurements from different studies.
Numbered parts are unrelated; each lists some results of a single study. Positions count from the first letter of the parent shown.

Block 1 — target: CEP164, C-terminal peptide (human); method: DHFR complementation, deep sequencing; sample: yeast; baseline: wild type; direction: higher = weaker binding
Setting: single substitutions, model-inferred values
Starting sequence: PDZK1, PDZ domain 2 (human); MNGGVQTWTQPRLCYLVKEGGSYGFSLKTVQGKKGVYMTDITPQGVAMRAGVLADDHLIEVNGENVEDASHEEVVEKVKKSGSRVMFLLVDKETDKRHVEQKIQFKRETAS; partner HNRVKVYRF
Change | binding free energy change [kcal/mol]
S83M | -0.00672
A69S | -0.0311
E76T | 0.133
D40A | 0.603
G3I | 0.00307
D55L | 0.914
Q104W | -0.147
M86T | -0.258
R107F | -0.0399
Q31H | 0.0275
Q44T | 0.0399
S111Y | -0.0138
V90F | 0.0476
G20Q | 0.154
D55P | 1.88
K102Y | -0.0613
G4N | 0.00299

Block 2 — target: CCNB3, cyclin fold, Cln2 fusion (human); method: yeast growth competition, sequencing; sample: yeast; setting: weak parent motif; baseline: not given; direction: higher = stronger binding
Starting sequence: MASTL docking peptide (human); PMIAKNLMCELDE
Change | normalised enrichment score
L7K | 0.122
N6V | -0.00273
D12P | -0.25
C9Y | -0.325
L7M | -0.229
L11Q | 0.0556
A4C | -0.0827
A4D | -0.0715
A4V | 0.454
A4P | 0.382
M8W | 0.201
D12Y | -0.438
A4Y | 0.017
C9Q | -0.0539
I3K | -0.00361
I3A | -0.0163
N6G | -0.12
A4M | 0.0303
I3L | -0.211
I3P | -0.195
M8P | -0.149
M2Y | 0.377
A4T | 0.0128
A4W | 0.698
M2R | 0.0861

Block 3 — target: OGT, full length, His-tagged (human); method: phage display, sequencing; sample: in vitro; concentration: 1 µg OGT; baseline: input library; direction: higher = stronger binding; starting sequence: peptide; TAPFYPPAYQIQVFK
Setting: single substitutions, 15-mer displayed peptide, unchanged parent 19.6
Change | fold enrichment
F4L | 17.6 fold
P6W | 2.72 fold
A8P | 0.67 fold
Y5L | 1.61 fold
F4E | 8.8 fold
Y9P | 0.815 fold
A8E | 5.2 fold
P6G | 1.32 fold
F4G | 4.52 fold
T1K | 14.3 fold
P7G | 1.13 fold
P6A | 2.2 fold
Q10K | 2.06 fold
P7S | 1.06 fold
Y5W | 3.19 fold
T1E | 14.1 fold
P7L | 0.602 fold
T1G | 13.1 fold
Y9F | 3.46 fold

Block 4 — method: aptamer microarray, sandwich; form: DNA with 2'F-ANA; sample: in vitro; concentration: 200 nM; together with: Cy3 exosite-II aptamer, 400 nM; direction: higher = stronger binding; oligonucleotide: GGTTGGTGTGGTTGG
Target: Prothrombin, mature alpha-thrombin (F2, Homo sapiens, UniProt P00734)
Setting: whole 15-mer aptamer, many near background
Modification | mean fluorescence intensity
2'F-ANA at 1 3 5 10 11 12 15 | 54.7 a.u.
2'F-ANA at 3 5 9 10 13 14 15 | 49.2 a.u.
2'F-ANA at 3 6 7 8 11 12 13 15 | 1130 a.u.
2'F-ANA at 3 4 6 7 8 10 11 12 14 | 171 a.u.
2'F-ANA at 1 2 3 4 5 10 11 13 14 | 47.1 a.u.
2'F-ANA at 3 4 5 6 9 10 | 49.2 a.u.
2'F-ANA at 3 4 5 7 9 10 11 12 13 15 | 54.9 a.u.
2'F-ANA at 2 4 6 7 8 10 13 14 15 | 57.7 a.u.
2'F-ANA at 3 6 7 8 9 10 11 12 | 556 a.u.
2'F-ANA at 2 3 5 6 9 12 14 15 | 61.7 a.u.
2'F-ANA at 1 3 4 5 7 10 11 13 14 15 | 86.3 a.u.
2'F-ANA at 3 4 5 8 11 12 15 | 167 a.u.
2'F-ANA at 1 2 4 5 6 8 11 15 | 53.2 a.u.
2'F-ANA at 4 5 7 8 9 10 11 12 13 14 | 58.4 a.u.
2'F-ANA at 6 7 8 11 13 | 496 a.u.
2'F-ANA at 3 4 6 9 11 15 | 420 a.u.
2'F-ANA at 4 7 8 9 10 11 | 85.2 a.u.
2'F-ANA at 3 4 6 8 10 11 12 14 | 166 a.u.
2'F-ANA at 2 3 6 9 11 13 15 | 563 a.u.
2'F-ANA at 1 2 3 6 10 12 13 15 | 133 a.u.
2'F-ANA at 2 6 8 10 12 13 14 15 | 78.7 a.u.
2'F-ANA at 1 4 5 9 11 13 14 15 | 47 a.u.
2'F-ANA at 4 7 8 9 10 11 13 14 | 67.9 a.u.
2'F-ANA at 1 5 8 9 10 12 13 14 15 | 48.7 a.u.
2'F-ANA at 3 5 6 7 8 9 12 13 14 15 | 60.8 a.u.

Block 5 — method: protein-binding microarray; form: double-stranded DNA, one strand shown; sample: in vitro; concentration: 250 nM; setting: 60-bp whole probe; together with: salmon DNA 0.4 mg/ml; baseline: random background probes; direction: higher = stronger binding; constant ends, left off below: GCCTAGCAC … GTCTTGATTCGCTTGACGCTGCTG
Target: Interferon regulatory factor 7, full length, phosphomimetic (IRF7, Homo sapiens, UniProt Q92985, residues 1-503, S101K/S471D/S472D/S475D/S476D/S477D/S483D/S484D/S487D)
Construct (chain): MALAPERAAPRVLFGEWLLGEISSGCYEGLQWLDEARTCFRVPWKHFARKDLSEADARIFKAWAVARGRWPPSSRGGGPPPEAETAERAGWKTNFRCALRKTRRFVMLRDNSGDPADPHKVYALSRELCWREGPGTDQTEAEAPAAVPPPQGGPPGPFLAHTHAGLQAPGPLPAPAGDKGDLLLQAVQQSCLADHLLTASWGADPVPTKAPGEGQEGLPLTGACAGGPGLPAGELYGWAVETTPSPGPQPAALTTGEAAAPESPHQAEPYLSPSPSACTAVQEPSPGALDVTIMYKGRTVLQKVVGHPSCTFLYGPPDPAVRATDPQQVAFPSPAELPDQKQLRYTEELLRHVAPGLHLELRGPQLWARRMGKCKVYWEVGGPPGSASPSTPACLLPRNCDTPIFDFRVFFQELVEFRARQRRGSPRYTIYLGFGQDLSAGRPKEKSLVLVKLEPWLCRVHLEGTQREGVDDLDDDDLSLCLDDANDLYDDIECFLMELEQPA
Oligonucleotide | log fluorescence
GACGGTTTCCTATCCCTGACGTGCTAG | 2.28 z-score
TCATCTGTCAGTTTTGAACTGTGCTAG | 0.352 z-score
TTAGGTTCCCTTTTCGTTTAGTGCTAG | 5.16 z-score
TTAGGACTGGGGTGTCGGTTAGTGCTA | -0.544 z-score
CTCTGCTTGCGTCTGGGTGTGTGCTAG | -0.627 z-score
TTAGGTTCCGGTTTCGGTGAGTGCTAG | 7.47 z-score
TTAGGCCTGCTTATCCTTTAGTGCTAG | -0.126 z-score
TTAGGTTTCGACTTACGGTTAGTGCTA | 12.6 z-score
CTTAGAATAATTTTTTAGCTTGTGCTA | -0.0597 z-score
TCAGAATTTACTTTCTAACTGTGCTAG | 0.403 z-score
TTCACTTTAACTTATTCTCTAGTGCTA | 0.381 z-score
GACGCTTCCCTTTTCCTGACGTGCTAG | 1.52 z-score
GACGGTTTCGACTTTCGTGACGTGCTA | 10.6 z-score
